Results gathered from unrelated publications.
“And” joins repeats or separate records; there may be more than shown. Numbers after ± are the reported error.

`COC(=O)c1cc(NC2=NC(=O)C(=Cc3ccc(N(C)C)cc3)S2)ccc1OC(C)=O` gave a fold change of 0.525 (MCF7; refers to: CHAF1B mRNA; 0.81 µM (IC50), 24 h; relative to: DMSO).
For `Cc1cc(-c2ccc(S(=O)(=O)C3CC(C(=O)NC4(C#N)CC4)N(C(=O)C4(C(F)(F)F)CC4)C3)c(C(F)(F)F)c2)ccn1` (centres unmarked), “BRCA1 protein level” read “no effect” (MDA-MB-436 (BRCA1 mutant); Western blot; concentration not given, 24 h).
`CO[C@@H]1[C@@H](OC(N)=O)[C@@H](O)[C@H](Oc2ccc3c(O)c(NC(=O)c4ccc(O)c(CC=C(C)C)c4)c(=O)oc3c2C)OC1(C)C` gave a colony survival of 22.1% (DLD-1 BRCA2-/-; 75 µM, mean of replicates A, B; relative to: untreated).
The inhibition of `Cc1cc(C)nc(SCC(=O)Nc2ncc(Cc3cccc4ccccc34)s2)n1` is reported as 4.3 ± 0.4% (PC-3M-luc; colony formation, colony forming; 25 µM).
`Cn1ncc(-c2ccc3c(=O)[nH]nc(CN)c3c2)c1-c1c(F)c(Cl)cc(OC2CC2)c1C#N` gave an IC50 of 6680 nM (SNU-449; cell viability, inhibitor, CellTiter-Glo; 120 h, baseline-subtracted).
With `Oc1cccc(-c2cccc(O)n2)n1.[Cl-].[Cl-].[Ru+2].c1ccc(-c2ccnc3c2ccc2c(-c4ccccc4)ccnc23)cc1.c1ccc(-c2ccnc3c2ccc2c(-c4ccccc4)ccnc23)cc1` the phototoxicity index was 130 (MCF-10A; cell viability; relative to: dark EC50 over light EC50).
With `CNS(=O)(=O)Nc1nccc(Cc2c(C)c3ccc(Oc4ncccc4F)cc3oc2=O)c1F` the IC50 was 17.4 nM (P31-FUJ; cell viability, CellTiter-Glo; 7 days).
`CCN(C(=O)c1cc(F)ccc1Oc1nncnc1N1CCC2(C1)CN([C@H](CCCN(C)CCOC)C(C)C)C2)C(C)C` gave a GI50 of > 10000 nM (DLD-1; cell growth or viability; 72 h).
`CC(C)C[C@@H]1NC(=O)[C@H](CC(C)C)NC(=O)[C@H](Cc2c[nH]c3ccccc23)NC(=O)[C@H](CO)NC(=O)[C@H](Cc2c[nH]c3ccccc23)NC(=O)[C@@H]2CCCN2C(=O)[C@H](CC(C)C)NC(=O)[C@H](Cc2c[nH]cn2)NC(=O)[C@@H]2CCCN2C(=O)[C@H](CC(N)=O)NC(=O)[C@H](C)NC(=O)[C@H](Cc2ccc(O)cc2)NC(=O)[C@H](CS)NC(=O)[C@H](CCCCNC(=O)CN2CCN(CC(=O)O)CCN(CC(=O)O)CCN(CC(=O)O)CC2)NC1=O` [lutetium-177 labelled] has a dead cells of 32% (4T1; flow cytometry; 0.4 Bq/cell, 48 h).
The inhibition of `COc1cccc(CNC[C@@](O)(COCc2ccccc2)[C@@H]2CC[C@@H](C)C[C@H]2OCc2ccccc2)c1` is reported as 94.5% (MDA-MB-231; cell growth or viability, MTT; 30 µM, 72 h).
With `Cc1ccncc1.[Cl-].[Cl-].[Ru+2].c1cc(-c2ccc3cccnc3n2)nc(-c2ccc3cccnc3n2)c1.c1ccc2cc3nc4c5cccnc5c5ncccc5c4nc3cc2c1` the phototoxicity index was 29 (A-375; resazurin; together with: light 733 nm, 100 J/cm2; relative to: dark EC50 over light EC50).
`CCN(CC)CC(=O)Nc1cccc(-n2cc(-c3ccc4ccc(-c5cn(-c6cccc(NC(=O)CN(CC)CC)c6)nn5)cc4c3)nn2)c1` has a fold regulation of -1.5 (RCC4; PCR angiogenesis array, refers to: NOTCH4; 5 x IC50, 6 h, normoxia; relative to: untreated).
The SILAC ratio of `O=C(N1CCCC1)n1cc(-c2ccc(-c3ccccc3)cc2)nn1` is reported as 1.31 and 1.14 (mouse T-cells; N-terminal labelling enrichment, refers to: Uqcrh N-terminal peptides; 1 nM, 6 h, single tryptic peptide; relative to: DMSO).
Under “mean neuron degeneration”, `C=CC(=O)N1[C@H](c2ccc3c(c2)OCO3)c2[nH]c3ccccc3c2C[C@@H]1C(=O)NC` is recorded as 77.2% (rat DRG neurons; 0.04115 µM, 48 h, together with: vincristine 40 nM).
`COc1cccc(OC)c1-c1cc(C(=O)NC2(C(=O)O)C3CC4CC(C3)CC2C4)nn1-c1ccc(C(=O)N(C)CCCN(C)CCCN(C)C(=O)[C@H](CCCCNC(=O)[C@H](CC(C)C)NC(=O)C2OC2C(=O)O)NC(=O)CN2CCN(CC(=O)[O-])CCN(CC(=O)[O-])CCN(CC(=O)[O-])CC2)cc1C(C)C.[177Lu+3]` (mixture of isomers) has an adduct formation of 52.7% (HT-29; SDS-PAGE autoradiography; concentration not given, 4 h; relative to: radioactive signal).
Under “log2 fold change”, `Cn1ncc2cc(-c3cncc(Cl)c3N3CCC4(CCNC4=O)CC3)ccc21` is recorded as 1.06 (LS174T; gene expression, microarray, refers to: MAT2A mRNA; concentration not given, 4 h; relative to: untreated cells).
The fold change of `N#Cc1cccc(/C=C/C(=O)c2ccc(O)cc2)c1` is reported as 0.033 (U-87 MG; refers to: SLC10A5; concentration not given; relative to: untreated).
For `Nc1ncc(-c2cc(-c3cnn(CC(F)(F)F)c3)ncc2F)nc1C(=O)NC1CNCC(F)C1` (centres unmarked), the remaining binding was 100% (DYRK2; KINOMEscan; 1 µM; relative to: DMSO control).
Under “γH2AX foci-positive nuclei”, `COc1ccccc1-c1ccncc1C(=O)Nc1nnc(OCc2ccc(Cl)cc2)s1` is recorded as 22.8% (DLD-1 BRCA2 wild-type; immunofluorescence; 5 µM, 96 h).
`CN(C)c1ccc(-n2cc(COC(=O)[C@@]3(C)C=C(C(=O)OC(C)(C)C)C(=O)CC3)nn2)cc1`: “luminescence relative to PMA” 0.142 (AP-1 reporter HEK293; AP-1 reporter gene, luciferase reporter; 10 µM, 6 h, together with: PMA 6 ng/mL; relative to: PMA alone).
For `COC1CN([C@H]2CC[C@H]([C@@]3(C)Oc4c(Cl)cc(C(=O)NCc5c(SC)cc(C)[nH]c5=O)c(C)c4O3)CC2)C1`, “log2 fold change” read 0.387 (RNA-seq, refers to: C17orf99 mouse homolog; mouse, HT-1376 xenograft, whole blood; dose not given; relative to: vehicle).
The ΔTm of `CC[n+]1cccc2cc(/C=N/NC(=O)c3ccc4ccc(C(=O)N/N=C/c5ccc6c(ccc[n+]6CC)c5)nc4n3)ccc21` is reported as 9 ± 0.2 °C (MYC parallel G4 DNA; FRET melting; 1 µM, DNA 0.2 µM, together with: duplex DNA competitor 10 µM).
`CCOc1cncc(-c2ccc(NC(=O)C3(c4ccnc(NS(=O)(=O)C5CC5)n4)CCOCC3)nc2)n1` gave an IC50 of 66 nM (UOC-M1; cell proliferation, CellTiter-Glo; 72 h, myeloid haematological cancer).
For `O=C(NCc1cc(F)cc(F)c1)[C@@]1(O)CCN(c2ccc3[nH]ccc3c2)C1=O`, the efficacy was 71% (RXF 393; colony formation, soft agar clonogenic; kidney tumour).
`C[n+]1cc(/C=N/NC(=O)N/N=C/c2cc3ccccc3[n+](C)c2)cc2ccccc21` has a ΔTm of 4.3 ± 0.2 °C (MYC parallel G4 DNA; FRET melting; 1 µM, DNA 0.2 µM, together with: duplex DNA competitor 10 µM).
With `CC(C)(C)c1cc(-c2ccc3cccnc3n2)nc(-c2ccc3cccnc3n2)c1.[Cl-].[Cl-].[Ru+2].c1cnc2c(c1)ccc1cccnc12` the phototoxicity index was 2 (A-375; resazurin; together with: light 633 nm, 100 J/cm2; relative to: dark EC50 over light EC50).
The viability of `CCc1c(-c2ccc3[nH]ncc3c2)cnc(N)c1-c1ccc(O)cc1` is reported as 104% (CHP-212; cell growth or viability, SRB; 0.7812 µM).
Under “log2 fold change”, `CN1CCCNC(=O)c2cccc(c2)C(=O)NCCCN(C)CCCNc2cccc3c2C(=O)c2cccc(c2C3=O)NCCC1` is recorded as -2.84 (SAS; RNA-Seq, refers to: ATP1B3 mRNA; 5 µM, 24 h; relative to: untreated cells).
For `CC(C)c1ccc(N(C)c2ccc3c(c2)OCC[C@H]3CNc2cnccc2C(=O)O)cc1`, the IC50 was 11.5 nM (COLO 205; cell growth or viability, ATP luminescence; 7 days).
With `Cc1ccc(-n2cc(CSc3nc4ccccc4n3Cc3cn(-c4ccc(C)cc4)nn3)nn2)cc1` the viability was 22.5% (Caco-2; MTT; 31.3 ppm).
`CC(C)(C)c1cc(-c2ccc3cc4ccccc4nc3n2)nc(-c2ccc3cc4ccccc4nc3n2)c1.Cc1ccncc1.[Cl-].[Cl-].[Ru+2].c1ccc2cc3nc4c5cccnc5c5ncccc5c4nc3cc2c1` gave an EC50 of 12700 nM (A-375; resazurin; together with: light 633 nm, 20 mW, 100 J/cm2).
For `Cc1ncsc1-c1ccc(C(C)NC(=O)C2CC(O)CN2C(=O)C(NC(=O)CCCCCCCCCCN2CCCC(Nc3ncc(Cl)c(Nc4ccccc4S(=O)(=O)C(C)C)n3)C2)C(C)(C)C)cc1` (centres unmarked), “log2 fold change” read -1.41 (22Rv1; RNA-seq, refers to: ZNF200 mRNA; concentration not given; relative to: DMSO).

A few entries again:
The SILAC ratio of `O=C(N1CCCC1)n1cc(-c2ccc(-c3ccccc3)cc2)nn1` is reported as 1.31 and 1.14 (mouse T-cells; N-terminal labelling enrichment, refers to: Uqcrh N-terminal peptides; 1 nM, 6 h, single tryptic peptide; relative to: DMSO).
Under “mean neuron degeneration”, `C=CC(=O)N1[C@H](c2ccc3c(c2)OCO3)c2[nH]c3ccccc3c2C[C@@H]1C(=O)NC` is recorded as 77.2% (rat DRG neurons; 0.04115 µM, 48 h, together with: vincristine 40 nM).
